# Measured values pooled from the literature.
# Every numbered part comes from another study and shows a few of its results, in no order.

# Set 1
# Target: PABPC1L2, full length, GST fusion (mouse, UniProt A0ABA7IW68)
# Method: RNAcompete
# Form: RNA
# Sample: in vitro
# Concentration: 20 nM
# Setting: 7-mer, probes averaged, single round
# Baseline: mean of 7-mers
# Reading: higher = stronger binding
# Construct (chain): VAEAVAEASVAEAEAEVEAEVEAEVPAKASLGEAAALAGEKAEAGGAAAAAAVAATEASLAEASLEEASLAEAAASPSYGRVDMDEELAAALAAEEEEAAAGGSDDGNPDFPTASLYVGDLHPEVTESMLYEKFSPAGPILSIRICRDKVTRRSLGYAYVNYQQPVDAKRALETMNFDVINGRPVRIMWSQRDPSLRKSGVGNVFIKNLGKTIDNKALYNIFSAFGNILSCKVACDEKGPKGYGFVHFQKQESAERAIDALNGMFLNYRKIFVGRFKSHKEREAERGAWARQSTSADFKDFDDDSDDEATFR
Oligonucleotide,7-mer Z-score
CAUUUGU,-0.438
AUCUCUU,-0.351
AUUUGUC,-0.423
AACUUAG,0.233
AGUUAGG,0.0261
AACGAAA,1.39
CGAAUCC,-0.206
GUCUAAG,-0.199
AGUGAUU,-0.144
CGUCGUA,-0.49
GCUUUAU,-0.2
UGCCCCC,-0.389
ACCUCGU,-0.362
GAUACUU,-0.0863
UCCCUCG,-0.427
AUUGCAC,-0.19
UCGCAGG,-0.133
CAGUGAA,0.017
ACUGCGA,-0.0482
GAUCCCC,-0.519
AGUACAU,0.131

# Set 2
# Target: Histone acetyltransferase KAT6A, winged helix 1, GST fusion (KAT6A, Homo sapiens, UniProt Q92794, residues 1-85)
# Method: protein binding microarray
# Form: double-stranded DNA, one strand shown
# Sample: in vitro
# Concentration: not given
# Setting: 8-mer, flanks averaged, mean of 2 arrays, mostly near background
# Baseline: not given
# Reading: higher = stronger binding
# Construct (chain): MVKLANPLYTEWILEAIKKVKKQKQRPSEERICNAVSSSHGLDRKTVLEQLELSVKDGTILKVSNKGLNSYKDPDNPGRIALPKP
Oligonucleotide,E-score
AACACCCG,0.231
AAAACTCG,-0.104
ACTGCAAT,-0.139
CGTGGGAC,0.0786
AAGAGCAG,0.0251
AAGTTTAG,-0.214
ACGTGTTA,-0.0212
CAATGACA,-0.252
CCGGGCTA,0.242
GTATTCCA,-0.139
GTCAAACA,-0.176
AAGGCCTG,-0.0514
CCCGCACC,0.215
CCCCGTCA,0.193
GCCCCTCC,0.0574
CGTCTAAC,0.164
ACAAACTA,-0.0459
ACGGTCAA,0.228
CCCGGGAG,0.282
ACGGTCGG,0.253

# Set 3
# Target: RNA binding protein fox-1 homolog 2, RRM domain, GST-SBP tag (RBFOX2, Homo sapiens, UniProt O43251-10, residues 100-194)
# Method: RNA Bind-n-Seq
# Form: RNA
# Sample: in vitro
# Concentration: 365 nM
# Setting: natural RNA segment, single round, ends assumed
# Baseline: no-protein control
# Reading: higher = stronger binding
# Residues (chain): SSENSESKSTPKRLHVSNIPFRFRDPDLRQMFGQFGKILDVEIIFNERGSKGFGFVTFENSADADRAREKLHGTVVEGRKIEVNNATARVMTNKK
Oligonucleotide,RBNS enrichment (R)
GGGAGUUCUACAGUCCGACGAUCGUAUUGGGGCAAUGUGUCAGGGAGGAAUCACCACAUCCCUACGGCAGUCCCAGCCAAGCCCCCAAUCCCAGCGGAGACUGUGCCCUGCUCAGAGCUCCCAAGCCUUCCCCUGGAAUUCUCGGGUGCCAA,0.671
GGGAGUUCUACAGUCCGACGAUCGGUUGAGAAUCACUGUGGGCGUCCAUUCUUAUUCAACUAAAUCUCCACAGGUUUUUUGAGCUGGUGUGGAUUAGUUUAACUCUUGUAUUCAACCAUUAGUGCUACCACCUUGGAAUUCUCGGGUGCCAA,0.48
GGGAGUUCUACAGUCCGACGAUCUGAUCCUGAAGUGACGUCCUGAUGUCUGCCCAGCAACCGACUCAACCUGCUUCUGUGACUUCGUUCUUUUUGUUUUCAAGGGGUGAAAACCCCCUGUCAGAAGGUACCGUUGGAAUUCUCGGGUGCCAA,0.259
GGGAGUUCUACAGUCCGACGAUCUUCAAAGUGCCAAUGAUAGAGUCAACAGGAAGGUUAAUGUUGGAAACACAAUCAGGUGUGGAUUGGUGCUACUUUGAACAAAAGGUCCCCCUGUGGUCUUUUGUUCAACAUGGAAUUCUCGGGUGCCAA,0.469
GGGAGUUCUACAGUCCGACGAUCUUGGUGGGGCUGGCACGAAUCCAGAUCUGGAUCCUACAUCUGUUGGGUCUUAGGCCUCCUUCCCUCCUCAGUGUCUUUCAAAUGACUUUCAUCAAAUGACUUUCAAAAUAUGGAAUUCUCGGGUGCCAA,0.427
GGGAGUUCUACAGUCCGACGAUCCUUGGUCCCCAGUGAGCUGAGGUGUGUACAAGGCCACCGAGUCACCUGCCCUCUCUCCGGAUCAUUUUUCUAGAGCAAGCAGGCCAGACUUCAUCCUGCCUUUGUCUUCGUGGAAUUCUCGGGUGCCAA,0.236
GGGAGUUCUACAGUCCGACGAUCACAAUGUGGAAAGCUGAUAUACCUGUGCAAAAUCUUUGCCUCUGUGCUGUCAGUGUGAUGUGCUUUCUGCAUGGUUAUAUACUACUAGUGAUUUUAUCAAAACUUCUAAAUGGAAUUCUCGGGUGCCAA,0.42
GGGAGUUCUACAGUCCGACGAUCGAAACAAGAAGAAACAUUGUGAUUGCGAAGUGUCAUUUUGUUUUUUUUUUAAAUAACAUGUAUUAUGGUACAAUCAAAUUGUUCACAUUACCAAAGCAAUAUUUCUUUGGUGGAAUUCUCGGGUGCCAA,0.422

# Set 4
# Target: Interferon regulatory factor 5, full length, phosphomimetic (IRF5, Homo sapiens, UniProt Q13568-2, residues 1-514, K96S/S451D/S453D/S456D/S462D)
# Method: protein-binding microarray
# Form: double-stranded DNA, one strand shown
# Sample: in vitro
# Concentration: 250 nM
# Setting: 60-bp whole probe
# Added: salmon DNA 0.4 mg/ml
# Baseline: random background probes
# Reading: higher = stronger binding
# Shared flanks, not repeated: GCCTAGCAC … GTCTTGATTCGCTTGACGCTGCTG
Oligonucleotide,log fluorescence [z-score]
GATGAACTGGGGACTGGAGACGTGCTA,-0.605
CACGGTATCGGACTGGGGACGTGCTAG,0.81
TCAGTTTTGTTTTTCATACTGTGCTAG,2.19
TTAGGACTAGGTTTCGGTTAGTGCTAG,8.73
GACGGTTTCGGGTTTTGGGACGTGCTA,6.91
GACGGTTTCGGTTTCGGAACGTGCTAG,11
GACGGTTTCGACTTTCGAGACGTGCTA,7.87
TTAGATTTCGGGTTTCGAATAGTGCTA,6.23
TCAGTTTTCTCCATGGAACTGTGCTAG,1.2
TTAGATTTCAGTTCGGATTAGTGCTAG,1.71
TAGTTGCAAGCCATGGGTGGGTGCTAG,-0.605
TACGGACTGGGACTGGGGACGTGCTAG,-0.467
TTCGAACTGGGGACTGGATTAGTGCTA,-0.299
GGGCTTTCCCAGCCTGGGGCTGTGCTA,-0.541
TTAGATATCAGATTGGATTAGTGCTAG,0.564
GACGGACTGCTTCTCCTGAGGTGCTAG,-0.458
GAAGGTCTCGGTCTCGGGACGTGCTAG,0.232
GACGGTTTCGGTTCCGGGAGGTGCTAG,9.78
TCATATCTCTGTTTTTGACTGTGCTAG,1.01

# Set 5
# Target: Fragile X messenger ribonucleoprotein 1, C-terminal low-complexity region (Fmr1, Mus musculus, UniProt P35922)
# Method: RNA Bind-n-Seq
# Form: RNA
# Sample: in vitro
# Concentration: 200 nM
# Setting: whole 134-nt RNA, ends assumed
# Added: 150 mM KCl
# Baseline: input library
# Reading: higher = stronger binding
Oligonucleotide,log2 enrichment
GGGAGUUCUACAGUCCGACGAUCUGUGCUACACAUCGUAUGUACCGAAUCGGGGAAAAAAAGGGAAAAAAAGGGGAAAAAAAGGGAAAGUAUUAUGUUACGCCGUUCGGAUCUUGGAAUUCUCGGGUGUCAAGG,-0.379
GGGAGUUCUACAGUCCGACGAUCCAAGUCCUGUGCUACACAUCGUAUGUACCGAAUCGGGAAAAAGGGUGGGAAAGGGAAAGUAUUAUGUUACGCCGUUCGGAUCUGCACUUCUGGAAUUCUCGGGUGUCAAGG,0.721
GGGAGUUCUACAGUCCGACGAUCUGGGAGGUCGAUUUUGUUUAUUUUUUUAGCUCAUUUCCAGGGGUGGGAAUUUUUUUUUAAUAUGUGUCAUGAAUAAAGUUGUUUUUGAAAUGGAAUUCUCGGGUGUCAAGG,-0.0477
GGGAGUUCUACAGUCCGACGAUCCAAGUCCUGUGCUACACAUCGUAUGUACCGAAUCGGGUUUUUGGGUGGGUUUGGGAAAGUAUUAUGUUACGCCGUUCGGAUCUGCACUUCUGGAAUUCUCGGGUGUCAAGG,1.13
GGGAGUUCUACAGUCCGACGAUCUCCUGUGCUACACAUCGUAUGUACCGAAUCGGUUUUUUGGGUUUUUUGGGGUUUUUUGGGAAAGUAUUAUGUUACGCCGUUCGGAUCUGCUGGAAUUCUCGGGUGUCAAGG,0.000439
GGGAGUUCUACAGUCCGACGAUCUCCUGUGCUACACAUCGUAUGUACCGAAUCGUGUGUGUGUGUGUGUGUGUGUGUGUGUGUAAAGUAUUAUGUUACGCCGUUCGGAUCUGCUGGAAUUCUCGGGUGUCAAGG,0.811
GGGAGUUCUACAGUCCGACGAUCAAGUCCUGUGCUACACAUCGUAUGUACCGAAUCGGGGCCCGGGGCCCGGGCCCGGGGAAAGUAUUAUGUUACGCCGUUCGGAUCUGCACUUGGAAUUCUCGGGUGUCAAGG,-1.13
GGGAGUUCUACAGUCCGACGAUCCAAGUCCUGUGCUACACAUCGUAUGUACCGAAUCGGAAAAAGGAAAGGUUUUUGGAAAGUAUUAUGUUACGCCGUUCGGAUCUGCACUUCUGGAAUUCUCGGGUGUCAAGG,-0.954
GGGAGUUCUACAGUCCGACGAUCUGCUAGGCAAUGGAUCACUUGGAGUCCUUUAUUGCUGAAUGUGAUCGGAGAACUGAGCUCGCCAAGAAGCGGCUGGCAGAAACACAGGAGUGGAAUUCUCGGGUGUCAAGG,0.694

# Repeated from above (set 1):
Oligonucleotide,7-mer Z-score
UGCCCCC,-0.389
GAUACUU,-0.0863
UCCCUCG,-0.427
GAUCCCC,-0.519
CGUCGUA,-0.49
AUCUCUU,-0.351
AGUGAUU,-0.144
ACUGCGA,-0.0482
AGUUAGG,0.0261
AACGAAA,1.39
GUCUAAG,-0.199
CGAAUCC,-0.206
UCGCAGG,-0.133
